Measured values of several laboratories.
A part holds a random share of what one study measured.

Sample 1
Target: Sal-like protein 4, full length isoform B (SALL4, Homo sapiens, UniProt Q9UJQ4-2, residues 1-616)
Technique: universal PBM
Molecule type: double-stranded DNA, one strand shown
Sample: in vitro
Concentration: not given
Notes: 8-mer, flanks averaged, mean of replicates
Reading: higher = stronger binding
Measurement: E-score
Target sequence (chain): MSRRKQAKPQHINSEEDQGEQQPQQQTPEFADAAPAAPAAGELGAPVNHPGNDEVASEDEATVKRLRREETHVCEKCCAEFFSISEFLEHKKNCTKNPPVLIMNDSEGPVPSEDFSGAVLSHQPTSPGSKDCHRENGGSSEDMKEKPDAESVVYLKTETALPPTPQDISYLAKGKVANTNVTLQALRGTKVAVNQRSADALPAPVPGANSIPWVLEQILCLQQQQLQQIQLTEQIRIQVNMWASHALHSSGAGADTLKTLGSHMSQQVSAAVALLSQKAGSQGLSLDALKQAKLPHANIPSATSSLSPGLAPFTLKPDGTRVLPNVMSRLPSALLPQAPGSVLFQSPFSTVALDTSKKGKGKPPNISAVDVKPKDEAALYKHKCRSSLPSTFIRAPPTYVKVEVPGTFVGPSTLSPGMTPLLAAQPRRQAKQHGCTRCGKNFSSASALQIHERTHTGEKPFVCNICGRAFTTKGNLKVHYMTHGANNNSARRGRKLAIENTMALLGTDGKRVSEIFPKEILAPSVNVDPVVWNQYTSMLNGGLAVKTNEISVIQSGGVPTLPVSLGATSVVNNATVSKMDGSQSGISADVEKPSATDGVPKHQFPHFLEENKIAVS
AAGGACGG: -0.195
ACTCCGAG: -0.136
ACCGGCCG: -0.311

Single results of other studies
IRF7 S471D/S472D/S475D/S476D/S477D/S483D/S484D/S487D full length, phosphomimetic: Interferon regulatory factor 7, full length, phosphomimetic (IRF7, Homo sapiens, UniProt Q92985, residues 1-503, S471D/S472D/S475D/S476D/S477D/S483D/S484D/S487D)
Chain of UniProt Q92985 (whole entry, unmodified, looked up): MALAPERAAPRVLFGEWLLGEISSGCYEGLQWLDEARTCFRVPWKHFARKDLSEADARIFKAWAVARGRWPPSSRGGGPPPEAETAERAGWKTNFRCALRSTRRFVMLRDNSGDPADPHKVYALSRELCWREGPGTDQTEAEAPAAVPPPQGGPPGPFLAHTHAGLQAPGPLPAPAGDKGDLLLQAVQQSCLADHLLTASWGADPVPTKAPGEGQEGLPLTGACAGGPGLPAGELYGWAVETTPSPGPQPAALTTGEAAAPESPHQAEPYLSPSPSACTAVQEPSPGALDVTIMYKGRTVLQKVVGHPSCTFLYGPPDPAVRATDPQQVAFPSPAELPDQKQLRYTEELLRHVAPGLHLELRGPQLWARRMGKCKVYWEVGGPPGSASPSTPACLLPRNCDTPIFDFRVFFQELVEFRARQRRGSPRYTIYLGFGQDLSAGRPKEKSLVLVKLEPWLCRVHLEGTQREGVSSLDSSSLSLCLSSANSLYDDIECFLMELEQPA
GCCTAGCACGAAGGACTGCTACTGCTGACGTGCTAGGTCTTGATTCGCTTGACGCTGCTG
fitted relative affinity (IRF7 S471D/S472D/S475D/S476D/S477D/S483D/S484D/S487D full length, phosphomimetic; protein-binding microarray; double-stranded DNA, one strand shown, in vitro; 2200 nM top, 60-bp whole probe, with: salmon DNA 0.4 mg/ml; relative to: random background probes, higher = stronger binding): -0.494 z-score

GGGAGUUCUACAGUCCGACGAUCCUCAAGUCCUGUGCUACACAUCGUAUGUACCGAAUCGGGCCGGGGCCGGCCGGGAAAGUAUUAUGUUACGCCGUUCGGAUCUGCACUUCCUGGAAUUCUCGGGUGUCAAGG
log2 enrichment (Fragile X messenger ribonucleoprotein 1, C-terminal low-complexity region (Fmr1, Mus musculus, UniProt P35922); RNA Bind-n-Seq; RNA, in vitro; 200 nM, whole 134-nt RNA, ends assumed, with: 150 mM KCl; relative to: input library, higher = stronger binding): -0.274

GCCTAGCACATGCTTCTGTATTCATGAAGGTGCTAGGTCTTGATTCGCTTGACGCTGCTG
fitted relative affinity (Interferon regulatory factor 5, full length, phosphomimetic (IRF5, Homo sapiens, UniProt Q13568-2, residues 1-514, S451D/S453D/S456D/S462D); protein-binding microarray; double-stranded DNA, one strand shown, in vitro; 940 nM top, 60-bp whole probe, with: salmon DNA 0.4 mg/ml; relative to: random background probes, higher = stronger binding): 0.0259 z-score

PhoQ, residues 284 288 289 292 302 303 SVTLVV
fold induction (PhoP, residues 12 14 15 18 19 LHHVQ (Escherichia coli, UniProt P23836); Sort-seq, item: YFP reporter; E. coli; PhoQ-PhoP variant library, with: 10 µM Mg2+; relative to: high Mg2+ state, higher = stronger signaling): 2.01

GCCTAGCACTCAGGTTCCGGTTTCGGTTAGTGCTAGGTCTTGATTCGCTTGACGCTGCTG
fitted relative affinity (IRF7 S471D/S472D/S475D/S476D/S477D/S483D/S484D/S487D full length, phosphomimetic; protein-binding microarray; double-stranded DNA, one strand shown, in vitro; 2200 nM top, 60-bp whole probe, with: salmon DNA 0.4 mg/ml; relative to: random background probes, higher = stronger binding): 9.2 z-score

A few entries again (single results of other studies):
GCCTAGCACGAAGGACTGCTACTGCTGACGTGCTAGGTCTTGATTCGCTTGACGCTGCTG
fitted relative affinity (IRF7 S471D/S472D/S475D/S476D/S477D/S483D/S484D/S487D full length, phosphomimetic; protein-binding microarray; double-stranded DNA, one strand shown, in vitro; 2200 nM top, 60-bp whole probe, with: salmon DNA 0.4 mg/ml; relative to: random background probes, higher = stronger binding): -0.494 z-score
